Measured values from different studies.
Lines come from different studies, so protocols differ.

SMILES	test	test system	conditions	scale	Cmax ratio
CC(C)c1nc(N(C)S(C)(=O)=O)nc(-c2ccc(F)cc2)c1/C=C/[C@@H](O)C[C@@H](O)CC(=O)O		healthy human volunteers, plasma	oral, BCRP probe substrate, together with: momelotinib	relative to: compound alone	323%
NC1(C(=O)N[C@@H](CCO)c2ccc(Cl)cc2)CCN(c2nc[nH]c3nccc2-3)CC1		human, plasma	together with: with or without enzalutamide	relative to: cycle 2 over cycle 0	0.64
CC(C)[C@@H]1CC[C@@H](C)C[C@H]1OC(=O)O[C@@H](C)OC(=O)[C@H]1[C@@H]2C[C@H](F)[C@@](N)(C(=O)O)[C@@H]21		human, plasma	oral, 10 mg, single dose	relative to: fed over fasted	0.553
COc1cc2nccc(Oc3ccc(NC(=O)c4cc5c(n(-c6ccccc6)c4=O)CCCC5=O)nc3)c2cc1OC	food effect	human	oral, 6 mg	relative to: day 57 over day 28	0.89
CCCCC1=NC2(CCCC2)C(=O)N1Cc1ccc(-c2ccccc2S(=O)(=O)Nc2noc(C)c2C)c(COCC)c1		healthy humans, plasma	oral, 200 mg	relative to: fed over fasted	1.22
COc1ccc2nc([S@@+]([O-])Cc3ncc(CO)c(OC)c3C)[nH]c2c1		human	rifampicin induction session	relative to: (R)-OH-omeprazole over compound	8.2 fold
N[C@]1(C(=O)O)[C@H]2[C@@H](C[C@@H]1F)[C@@H]2C(=O)O		human, both sexes, plasma	oral, 10 mg, single dose	relative to: fed over fasted	0.427
C=CC(=O)NC1CCN(c2ncc3ncnc(Nc4ccc(Oc5ccc6c(c5)ncn6C)c(C)c4)c3n2)CC1		human, male, plasma	oral, 30 mg, adjusted geometric means	relative to: fed over fasted	53.5%
C[C@H](Oc1ccc(Br)cc1-c1ccon1)C(=O)O		human, plasma	800 mg single dose	relative to: fed over fasted	1.08
C=CC(=O)NC1CCN(c2ncc3ncnc(Nc4ccc(Oc5ccc6c(c5)ncn6C)c(C)c4)c3n2)CC1		healthy male humans	oral, together with: carbamazepine	relative to: with over without carbamazepine	56.4%
N#CCNC(=O)c1ccc(-c2ccnc(Nc3ccc(N4CCOCC4)cc3)n2)cc1		healthy human volunteers, plasma	oral, together with: multiple-dose rifampin	relative to: compound alone	99.1%
CCNCc1cc(Nc2ccnc3cc(Cl)ccc23)ccc1O		humans, both sexes, plasma	oral, outlier included	relative to: fixed over non-fixed combination	0.85

For quick reference, copied from above:
SMILES	test	test system	conditions	scale	Cmax ratio
C[C@H](Oc1ccc(Br)cc1-c1ccon1)C(=O)O		human, plasma	800 mg single dose	relative to: fed over fasted	1.08
CCNCc1cc(Nc2ccnc3cc(Cl)ccc23)ccc1O		humans, both sexes, plasma	oral, outlier included	relative to: fixed over non-fixed combination	0.85
